Measured values collected from several papers.
Numbered parts are unrelated; each lists some results of a single study. Substitutions count along the parent as printed.

Set 1 — technique: aptamer microarray, sandwich; molecule type: DNA with 2'F-ANA; matrix: in vitro; tested at: 200 nM; added: Cy3 exosite-II aptamer, 400 nM; reading: higher = stronger binding; strand: GGTTGGTGTGGTTGG
Target: Prothrombin, mature alpha-thrombin (F2, Homo sapiens, UniProt P00734)
Notes: whole 15-mer aptamer, many near background
Modification | mean fluorescence intensity
2'F-ANA at 2 3 4 10 11 | 263 a.u.
2'F-ANA at 1 2 4 9 13 | 84.3 a.u.
2'F-ANA at 1 4 5 9 10 11 13 14 15 | 71.5 a.u.
2'F-ANA at 1 3 5 14 15 | 45.9 a.u.
2'F-ANA at 1 4 5 7 9 10 11 12 | 49.1 a.u.
2'F-ANA at 1 2 4 5 10 12 13 15 | 46 a.u.
2'F-ANA at 1 5 6 7 8 10 12 | 49.3 a.u.
2'F-ANA at 2 3 5 6 7 10 15 | 55.2 a.u.
2'F-ANA at 1 2 6 7 13 | 119 a.u.
2'F-ANA at 3 5 7 9 10 13 | 53.1 a.u.
2'F-ANA at 2 4 7 9 11 12 13 15 | 280 a.u.
2'F-ANA at 1 2 7 9 11 13 14 15 | 55.3 a.u.
2'F-ANA at 1 2 4 5 6 9 11 12 15 | 85.9 a.u.
2'F-ANA at 3 5 6 7 9 10 12 | 64.4 a.u.
2'F-ANA at 1 3 5 6 7 11 15 | 52.1 a.u.
2'F-ANA at 1 2 4 5 6 8 9 11 12 14 | 48.1 a.u.
2'F-ANA at 1 2 3 4 5 6 7 8 12 13 15 | 181 a.u.

Set 2 — technique: RNA Bind-n-Seq; molecule type: RNA; matrix: in vitro; tested at: 365 nM; baseline: no-protein control; reading: higher = stronger binding
Target: RNA binding protein fox-1 homolog 2, RRM domain, GST-SBP tag (RBFOX2, Homo sapiens, UniProt O43251-10, residues 100-194)
Notes: natural RNA segment, single round, ends assumed
All sequences stand within: GGGAGUUCUACAGUCCGACGAUC … UGGAAUUCUCGGGUGCCAA
Construct (chain): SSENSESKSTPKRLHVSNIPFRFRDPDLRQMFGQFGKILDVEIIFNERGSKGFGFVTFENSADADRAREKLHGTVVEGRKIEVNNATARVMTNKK
Strand | RBNS enrichment (R)
GGUAAGUAUAAGUAUUCAAGUAUUUGAUCAGUAAGUCACAGUUAUCUCCAGUGCAUUAAAUAACCUUCAUCAAGAAAUAGGUUAUAGGUAAAAUCUCUGAAGGAUCAUCU | 0.64
UCUAUGCUGUUCGUGUUGGGUUUUGUUCAUGUCAGAUACGUGGUUCAUUCUCAGGACCAAGGGAAACUGUCUUGCCUGUCCUCCUAUCUCCUCCCUUUCAGCAUCCUUUG | 1.17
UUCACUUAGUCAACAAGUGAUAAGUAAGUAACUUUCAUGUGCUAGGUGCUGUUAGACACAGAAGGUAAAUAUGUUCUUAACAAAAUGCUUUCUGAAAUUUUGAACCCCAC | 0.25
AGACGCUGGCCUUCAGACCUGAUCAGACUCCCAGGGGCAGCCACCACAUGUAUGACAGAGAACAGAGGAUGCCUGUUUUUGCCCCAAAGCUGGAAAUUCAUCACAACCUG | 0.579
CCUCGCCUCUGUUUGUCUGGCUCUAGAUACCUAAUUCUCAAUCUUCCUCCGCUCACCCCAUUGCUUGUUAUCACUGGGGAUGCCUGGACUUGGUCAAGUGAGCAACUGAU | 3.26
AUGUUCAGGGGAGAAGAGGUCACAGGUCAGGCCAGCUGCCCCAUCCUUUAGUUCGGGGUUAGCUCCCAGAACUGCCCUGCACCAUAAGCUGGUGAUUCUCCAUGCCUGUC | 0.449
UAUUGUAUUUAUUUUAGAAACUGAGAUAUACAUAGCAUGAUUACUUUUACAGAAGAAACUAAAAGACAAAGGAAUAUUAAGCACCUGAGGGGUUUUUGUUUGAUUGAUUG | 4.4
CGAUGUGUAUUCUAUAAGAGAAUAGCUUCCUAAUUAAGUCGGUUUAGAAGAAGGUGCUGGUGUCACACAUUUUUUUAUAAAAAAUAAAUUUUACAUAGUGAAAUACACCA | 0.571
CAGCUGUGGUCAGGUGACUUCCUGUCCCCUGGCAGCUCUGCUGAGUCCCUGUGUUUGAGCCUCCAGGGAGAAGGGUUUGGGCUGCAUUCUUCUUAUCCCCAUGCACAGAA | 0.643
UCUCUUGGUUGAUUUCAUUCCCUUGCAUCUUUCCCCUGUGCUGACAGGGGGCAGAAGGCACAACCAUUUCCAUGGUGUGCCGAGAGAAGGAGCUGAGGUCAGCAAGCCAG | 0.307
AGCUGCAGCCAUUGGAAGAAACCUGUUACCUGAAUGCGAUUUCCUCCAUUUUCUCAACAGCUGGAGGCCUCUCAGGCACCAUCGCUCGAGUGGCUGCUGGCUCUCAAGCU | 0.305
GGGGUUCAGACCUCCACAGGCUAGGUAGCUCAGCUUGCUUACAGACUGGAGACAUUUUCUUGUGUGGUUUUCUGGGUUUCGUCCUUCUGCAGCUGUCAUGGCUUUACAGU | 0.203

Set 3 — technique: RNA Bind-n-Seq; molecule type: RNA; matrix: in vitro; tested at: not given; baseline: input RNA pool; reading: higher = stronger binding
Target: RING finger protein unkempt homolog, zinc fingers 1-6, GST-SBP tag (UNK, Homo sapiens, UniProt Q9C0B0, residues 30-357)
UniProt Q9C0B0, sequence (30-357, looked up): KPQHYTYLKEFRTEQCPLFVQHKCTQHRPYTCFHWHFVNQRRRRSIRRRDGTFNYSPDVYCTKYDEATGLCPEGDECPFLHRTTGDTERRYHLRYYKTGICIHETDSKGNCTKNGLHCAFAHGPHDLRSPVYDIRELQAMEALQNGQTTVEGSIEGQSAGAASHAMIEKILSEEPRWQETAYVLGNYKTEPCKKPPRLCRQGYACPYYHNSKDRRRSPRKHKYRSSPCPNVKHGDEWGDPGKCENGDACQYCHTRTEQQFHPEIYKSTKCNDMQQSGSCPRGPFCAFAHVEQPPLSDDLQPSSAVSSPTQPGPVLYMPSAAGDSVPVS
Notes: RNA with constant flanks, human and mouse sites, ends assumed
All sequences stand within: GGGAGUUCUACAGUCCGACGAUC … CAACAGAGGAUUGAGCAUCA
Strand | bound/input enrichment [ratio]
CAGAAUAACUCUUCACAACCUUCAAAGCAGAAAUAUGUAUGUCUUGCUGUGGAAGACUGGGACUUGUUAAAUUCCUAUUGAUUAGUAGAUACAAGUUGACCUUUCUCUGGCCCCCAGCUC | 4.3
AAGAAUGCAGUCAUUGUUGACACUACCAUCUGCGACCCACAUUACAACCUGGCCCGCAGCAGCCGGCCCUUCGAGAGGCGCCUCUAUGUCCUGAACUCAAUGCAGGAUGUGGAAAACUAC | 0.184
GGAGCCACCCCUCCUCUUACGUCUGUACCUUGAAAGCUGCUGCUGCUGCUUACAGAAUUAUAUUUUUUUCUUUUGAAGAGUUUUAAGAAGUUGUAACUUUUUGUGUCUUGUCAUGUAAAA | 0.628
UGGUGUUUUCCCAAGGCUCCCUUCCCAAGCUCAGUGCAAACCUCUCACUCCCAAGUUUCUUUGAGGCCACUUGCCCCCAAGCACUUCACAAUAGACCCUCGAGGGCUUGUGUCCAUUUGG | 0.438
GCCAGCCGAGACGGAUAUCCGAUUAUAUUAUAUGAAAUUCCUUCUGGACGUUUUAUGAGAGAAUUGUGUGGCCACCUCAAUAUCAUUUAUGAUCUCGACUGGUCAAAAGACGAUCGCUAU | 0.23
GUCCUCCUUCAUUUUAAGGGUUAUUCCCAUUGUAUUGAUGUUUAUAUAAAGCAGUGCCAGGAGGGUGCUUACUUGAGAAAUGACAUAUUUGAAGAUGCAGCAAUACUCUGUCAGCGAGUG | 0.3
GAAAUAUGUGGCAAGGCCUUCAAAUAUCCAUCAAGACUUUUAAAACAUAAGAUAAUUCAUACAAGAGAGAAACAAUACAAGUGUAAAGUGUGUGGAAAUGCCUUCUGCACUCCAUCUUCA | 0.269
GCUGUGGCCAGAGGCUGUGCACUGCAGUGUGCAAUUCUUUCUCCGGCAUUUAAAGUUAGAGAGUUCUCUGUCACCGAUGCAGUUCCUUUUCCAAUAUCUCUGGUCUGGAACCACGACUCG | 0.132
AAGGAAAUGCUGGCUGCAAACCCUCAGGAUCGUCCAGAUGCUUUUGAACUAGAACUCAGAUUAGUACAAAUUGCAUUUAAAGAUAGCAGCUGGGAAACGUGACACAUAUUAUUUGCAAAU | 4.54
GAAUCUUCUGACAAUGAAGGUAGGCGUACAACUAGGAGAUUGCUGUCACGGAUAGCUUCUAGCAUGUCAUCUACUUUUUUCUCACGAAGAUCUAGUCAAGAUUCCUUGAAUACAAGAUCU | 0.119
GUAUUUAAUGUUGAAGUUGUUGCUGUUUCAUCCAUUCAUACACAAGACCCUUAUCUAGACAAAUUCUUUGCUCUUGUCAAUGCUCUGGAUGAACACAUGUUCCCGGUCCGAAUUGGGGAC | 2.46

Set 4 — target: CCND1, cyclin fold, Cln2 fusion (human); technique: yeast growth competition, sequencing; matrix: yeast; notes: weak parent motif; baseline: not given; reading: higher = stronger binding
Starting sequence: WEE1 docking peptide (human); HKTFRKLRLFDTP
Variant | normalised enrichment score
L7M | -0.776
K6L | -0.118
T3C | -0.0427
K2Y | 0.0817
L9W | 0.437
D11E | -0.189
F4I | 0.347
L7N | -0.124
L7G | 0.257
D11T | 0.0583
P13G | -0.448
K6C | 0.348
H1R | -1.16
R5S | 0.0512
R8V | 0.0895
R8C | 0.565
L9M | -0.268
P13K | 0.264
H1W | 0.672
T12M | 0.481
R5K | -0.142
K6M | -0.254
F10G | -0.934
F10R | -0.361
P13F | 0.226

Set 5 — technique: protein binding microarray; molecule type: double-stranded DNA, one strand shown; matrix: in vitro; tested at: not given; baseline: not given; reading: higher = stronger binding
Target: Histone acetyltransferase KAT6A, winged helix 1, GST fusion (KAT6A, Homo sapiens, UniProt Q92794, residues 1-85)
Notes: 8-mer, flanks averaged, mean of 2 arrays, mostly near background
Construct (chain): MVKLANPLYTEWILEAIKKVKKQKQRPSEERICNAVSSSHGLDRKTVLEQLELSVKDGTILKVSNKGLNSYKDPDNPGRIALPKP
Strand | E-score
CGATGCAG | -0.0612
CCCACATC | -0.212
GAGCTGAA | -0.267
CATTGTGG | -0.193
GCACACAA | -0.189
CACTCGTA | -0.0149
GTCTTTCA | 0.0027
AATCGGAT | 0.00384
AGAGTAGC | -0.124
CAGCCTTC | -0.0468
GCCCGAAA | -0.0415
AACTAGCC | -0.0933
AGCCGCAG | 0.255
GACGGGCC | 0.418
ATACGTAT | 0.139
ATTCGTAC | -0.0833
CACATCTC | -0.192
CTGCAATA | -0.0873
GCAGTTGA | -0.0943

A few entries again (set 5):
Strand | E-score
AGAGTAGC | -0.124
CAGCCTTC | -0.0468
GCCCGAAA | -0.0415
AACTAGCC | -0.0933
AGCCGCAG | 0.255
GACGGGCC | 0.418
ATACGTAT | 0.139
ATTCGTAC | -0.0833
